Assay results pooled from the literature.
Cell line: BT-549

Structure (SMILES) | assay | setting | scale | measurement | result
Cc1cc([C@H](C(=O)N2C[C@H](O)C[C@H]2C(=O)N[C@@H](CC(=O)N2CCC(N3CCC(C#Cc4ccc(C(=O)N[C@H]5C(C)(C)[C@H](Oc6ccc(C#N)c(Cl)c6)C5(C)C)cc4)CC3)CC2)c2ccc(-c3scnc3C)cc2)C(C)C)on1 | cell growth or viability | 7 days |  | IC50 | 0.147 µM
CC(=O)OC[C@H]1O[C@@H](Sc2sc(C(=O)c3ccc(C)cc3)c(N)c2-c2nc3ccccc3s2)[C@H](OC(C)=O)[C@@H](OC(C)=O)[C@@H]1OC(C)=O | SRB | 10 µM, 48 h | reference: untreated | growth | 69.7%
CC/C=C\C/C=C\C/C=C\C/C=C\C/C=C\C/C=C\CCC(=O)Nc1ccn(C2OC(CO)C(O)C2(F)F)c(=O)n1 (stereo not shown) | cell growth or viability, SRB |  |  | GI50 | 0.0454 µM
CCCCCCCCC/C=C/C=C/C(=O)N[C@H](C(=O)N[C@H]1C[C@@H](O)CCNC(=O)/C=C/[C@H](C)NC1=O)[C@@H](C)O | trypan blue cell counting | 2 days |  | antiproliferative concentration | 0.25 µM
CC(Cc1ccc(Cl)cc1)=C(c1ccc(Cl)cc1)c1ccc(OCCN(C)C)cc1 | cell growth or viability, SRB |  |  | GI50 | 4.95 µM
CCCCCCCCCCCCCCCCC1CC(=O)NCCCN(C)CCCCN(C)CCCN1C (stereo not shown) | cell growth or viability, neutral red | 48 h |  | IC50 | 2 mg/L
O=C1Nc2ccccc2/C1=N\Nc1nnc2n1N=C(c1ccc(Cl)cc1)CS2 | cell growth or viability, SRB | 10 µM |  | inhibition | 29%
CC(=C(c1ccc(O)cc1)c1ccc(Cl)cc1)c1ccc(Cl)cc1 | cell growth or viability, SRB |  |  | GI50 | 0.5 µM
CC(=O)OC[C@H]1O[C@@H](Sc2sc(C(=O)c3ccc(Br)cc3)c(N)c2-c2nc3ccccc3s2)[C@H](OC(C)=O)[C@@H](OC(C)=O)[C@H]1OC(C)=O | SRB | 10 µM, 48 h | reference: untreated | growth | 90.2%
CCNS(=O)(=O)c1ccc(COc2ccc3nc4ccc(=O)cc-4oc3c2)cc1 | Matrigel Transwell | 1 µM, 48 h |  | cell invasion | inhibited

Repeated from above:
Structure (SMILES) | assay | setting | scale | measurement | result
CCNS(=O)(=O)c1ccc(COc2ccc3nc4ccc(=O)cc-4oc3c2)cc1 | Matrigel Transwell | 1 µM, 48 h |  | cell invasion | inhibited
